Experimental data of several laboratories.
Every numbered part comes from another study and shows a few of its results, in no order.
Chain of UniProt Q13976 (whole entry, looked up): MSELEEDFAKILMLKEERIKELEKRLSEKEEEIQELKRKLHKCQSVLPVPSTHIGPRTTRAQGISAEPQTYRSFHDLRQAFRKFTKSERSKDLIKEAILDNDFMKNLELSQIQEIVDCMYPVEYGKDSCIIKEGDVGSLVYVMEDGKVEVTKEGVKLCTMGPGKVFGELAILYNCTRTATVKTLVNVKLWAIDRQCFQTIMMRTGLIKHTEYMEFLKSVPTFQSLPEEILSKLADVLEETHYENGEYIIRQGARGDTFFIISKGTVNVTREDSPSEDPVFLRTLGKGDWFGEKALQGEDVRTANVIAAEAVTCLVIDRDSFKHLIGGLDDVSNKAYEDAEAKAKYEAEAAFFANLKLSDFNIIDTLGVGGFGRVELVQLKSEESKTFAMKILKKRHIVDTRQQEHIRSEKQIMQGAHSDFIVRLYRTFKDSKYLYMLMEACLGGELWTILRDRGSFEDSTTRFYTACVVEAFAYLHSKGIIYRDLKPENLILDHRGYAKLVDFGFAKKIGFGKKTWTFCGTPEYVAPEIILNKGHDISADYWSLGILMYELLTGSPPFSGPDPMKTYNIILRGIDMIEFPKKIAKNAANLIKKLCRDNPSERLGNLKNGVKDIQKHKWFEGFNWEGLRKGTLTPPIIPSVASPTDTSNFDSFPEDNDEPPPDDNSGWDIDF
Chain of UniProt P42338 (whole entry, looked up): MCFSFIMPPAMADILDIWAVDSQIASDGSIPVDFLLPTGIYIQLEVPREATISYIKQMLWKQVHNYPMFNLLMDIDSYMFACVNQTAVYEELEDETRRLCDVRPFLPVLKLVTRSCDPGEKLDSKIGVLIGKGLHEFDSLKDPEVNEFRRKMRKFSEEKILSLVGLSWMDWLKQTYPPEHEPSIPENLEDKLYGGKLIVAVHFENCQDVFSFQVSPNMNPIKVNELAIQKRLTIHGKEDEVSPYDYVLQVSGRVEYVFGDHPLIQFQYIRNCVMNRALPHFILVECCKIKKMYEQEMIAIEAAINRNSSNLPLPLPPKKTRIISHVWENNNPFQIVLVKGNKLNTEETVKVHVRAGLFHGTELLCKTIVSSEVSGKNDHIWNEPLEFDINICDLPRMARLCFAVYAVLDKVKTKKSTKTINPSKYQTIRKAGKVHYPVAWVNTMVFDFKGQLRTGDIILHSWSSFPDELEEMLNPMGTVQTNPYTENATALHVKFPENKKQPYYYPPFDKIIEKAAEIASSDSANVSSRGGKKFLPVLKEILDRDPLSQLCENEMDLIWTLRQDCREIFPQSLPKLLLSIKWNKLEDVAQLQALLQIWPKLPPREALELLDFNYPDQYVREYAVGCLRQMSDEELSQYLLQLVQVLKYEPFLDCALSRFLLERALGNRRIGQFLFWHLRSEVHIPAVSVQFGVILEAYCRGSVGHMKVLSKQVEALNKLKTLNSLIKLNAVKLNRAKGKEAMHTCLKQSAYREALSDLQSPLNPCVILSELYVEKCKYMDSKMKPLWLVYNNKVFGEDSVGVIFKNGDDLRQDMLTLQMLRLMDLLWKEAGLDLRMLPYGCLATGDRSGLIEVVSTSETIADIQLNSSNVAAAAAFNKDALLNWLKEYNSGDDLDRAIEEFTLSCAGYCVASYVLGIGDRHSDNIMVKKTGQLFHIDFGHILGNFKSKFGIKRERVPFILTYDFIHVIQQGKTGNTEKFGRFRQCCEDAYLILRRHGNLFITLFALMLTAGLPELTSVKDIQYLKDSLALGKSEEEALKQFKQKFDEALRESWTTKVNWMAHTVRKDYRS
Chain of UniProt Q04912 (whole entry, looked up): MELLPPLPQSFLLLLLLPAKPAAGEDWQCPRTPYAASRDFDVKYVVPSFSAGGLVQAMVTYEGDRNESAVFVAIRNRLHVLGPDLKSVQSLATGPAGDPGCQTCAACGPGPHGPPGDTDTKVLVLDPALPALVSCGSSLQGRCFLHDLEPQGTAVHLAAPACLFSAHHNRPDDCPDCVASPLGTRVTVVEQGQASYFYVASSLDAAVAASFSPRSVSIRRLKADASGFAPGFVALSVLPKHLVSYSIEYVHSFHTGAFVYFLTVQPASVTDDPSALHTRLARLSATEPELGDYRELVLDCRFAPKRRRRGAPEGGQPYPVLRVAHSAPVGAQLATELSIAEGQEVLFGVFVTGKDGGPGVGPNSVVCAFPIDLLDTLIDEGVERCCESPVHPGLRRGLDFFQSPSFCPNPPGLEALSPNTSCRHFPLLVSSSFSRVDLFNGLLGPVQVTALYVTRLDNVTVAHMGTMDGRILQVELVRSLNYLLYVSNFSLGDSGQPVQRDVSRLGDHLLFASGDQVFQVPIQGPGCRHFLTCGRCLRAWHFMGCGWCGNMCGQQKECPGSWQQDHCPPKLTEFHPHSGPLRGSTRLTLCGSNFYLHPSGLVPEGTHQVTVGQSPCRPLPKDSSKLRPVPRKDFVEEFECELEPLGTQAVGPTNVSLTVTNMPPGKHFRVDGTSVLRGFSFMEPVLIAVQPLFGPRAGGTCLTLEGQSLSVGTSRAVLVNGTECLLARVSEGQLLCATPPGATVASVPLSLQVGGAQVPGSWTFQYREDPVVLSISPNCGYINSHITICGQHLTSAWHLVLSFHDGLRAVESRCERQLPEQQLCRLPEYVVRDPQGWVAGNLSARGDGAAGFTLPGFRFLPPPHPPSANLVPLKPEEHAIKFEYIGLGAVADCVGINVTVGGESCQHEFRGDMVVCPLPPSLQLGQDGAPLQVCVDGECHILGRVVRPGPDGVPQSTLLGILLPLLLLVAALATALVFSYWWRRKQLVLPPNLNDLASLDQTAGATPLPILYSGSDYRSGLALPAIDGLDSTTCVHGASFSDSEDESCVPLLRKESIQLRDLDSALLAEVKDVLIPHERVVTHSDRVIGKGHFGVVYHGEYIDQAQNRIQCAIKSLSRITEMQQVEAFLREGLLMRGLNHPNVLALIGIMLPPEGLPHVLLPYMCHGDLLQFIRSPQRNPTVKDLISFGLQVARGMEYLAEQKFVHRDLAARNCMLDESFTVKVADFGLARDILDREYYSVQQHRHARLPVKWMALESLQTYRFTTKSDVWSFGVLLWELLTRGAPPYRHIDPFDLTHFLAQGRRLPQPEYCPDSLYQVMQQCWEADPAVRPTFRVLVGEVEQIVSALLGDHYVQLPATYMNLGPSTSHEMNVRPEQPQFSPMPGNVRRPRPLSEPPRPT
Chain of UniProt P21127 (whole entry, looked up): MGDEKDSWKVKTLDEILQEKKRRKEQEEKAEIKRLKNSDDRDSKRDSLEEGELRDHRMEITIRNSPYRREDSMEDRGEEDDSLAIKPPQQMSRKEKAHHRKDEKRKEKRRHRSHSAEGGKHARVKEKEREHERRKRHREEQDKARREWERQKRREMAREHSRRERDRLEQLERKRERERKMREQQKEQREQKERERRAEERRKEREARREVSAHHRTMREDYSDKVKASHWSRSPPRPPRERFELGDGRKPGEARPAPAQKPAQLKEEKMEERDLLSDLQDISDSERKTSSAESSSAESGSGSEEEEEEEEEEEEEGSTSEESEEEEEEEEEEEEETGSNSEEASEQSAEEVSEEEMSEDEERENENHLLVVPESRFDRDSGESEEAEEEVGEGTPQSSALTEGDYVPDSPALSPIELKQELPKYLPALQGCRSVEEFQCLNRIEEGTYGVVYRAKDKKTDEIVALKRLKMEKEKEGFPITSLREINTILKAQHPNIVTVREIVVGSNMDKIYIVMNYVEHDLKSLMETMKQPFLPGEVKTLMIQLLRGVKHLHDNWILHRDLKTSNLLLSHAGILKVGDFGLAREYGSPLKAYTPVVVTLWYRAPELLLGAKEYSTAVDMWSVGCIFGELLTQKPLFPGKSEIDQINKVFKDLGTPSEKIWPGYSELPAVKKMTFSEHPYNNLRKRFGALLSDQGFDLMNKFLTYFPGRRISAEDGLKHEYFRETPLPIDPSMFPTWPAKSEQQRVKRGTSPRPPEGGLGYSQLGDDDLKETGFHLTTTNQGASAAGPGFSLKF
Chain of UniProt P52564 (whole entry, looked up): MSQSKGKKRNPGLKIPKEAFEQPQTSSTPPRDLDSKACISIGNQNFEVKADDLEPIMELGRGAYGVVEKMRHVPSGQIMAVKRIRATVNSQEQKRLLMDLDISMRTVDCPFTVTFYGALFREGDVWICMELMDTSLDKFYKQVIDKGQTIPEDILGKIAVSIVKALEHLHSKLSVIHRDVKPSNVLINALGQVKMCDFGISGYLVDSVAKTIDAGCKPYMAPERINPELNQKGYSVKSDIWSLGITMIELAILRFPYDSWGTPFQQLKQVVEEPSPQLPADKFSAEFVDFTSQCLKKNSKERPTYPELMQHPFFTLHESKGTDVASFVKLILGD

Block 1 — species: mouse; matrix: microsomes or S9; tested at: 2 µM; time: 0.5 h
SMILES	remaining compound
CC(C)(C)OC(=O)N[C@@H](CC(=O)N1CCN(S(C)(=O)=O)CCN1)Cc1cc(F)c(F)cc1F	22.7%
O=C(Nc1ccccc1)c1cn2c(n1)C(c1ccccc1)N(C(=O)c1ccccc1)CC2 (stereo not drawn)	61.3%
O=C1Nc2ccccc2C1(c1c[nH]c2ccccc12)c1c[nH]c2ccccc12	89.1%
Cc1nn(C2CCS(=O)(=O)C2)c2c1C(C(C)C)CC(=O)N2 (stereo not drawn)	84.1%
Cc1ccc(C(=O)N2CCc3c([nH]cnc3=O)C2)s1	9.58%
CCn1c(=O)c2sccc2n2c(CCCC(=O)NCCc3ccc(S(N)(=O)=O)cc3)nnc12	94.9%
CC/C(=C(\c1ccccc1)c1ccc(OCCN(C)C)cc1)c1ccccc1	10.6%
COC(=O)CC(c1cc(OC)c(O)c(OC)c1)c1c(O)n2ccccc2nc1=O (stereo not drawn)	78.2%
CCOc1cc(=O)n2c(c1C(=O)NCc1cccc(F)c1)CCCCC2	12.5%
Cc1ccc(NC(=O)CN(C)S(=O)(=O)c2ccc(Br)s2)c(Cl)c1	< 1%
COc1cccc(CCN[C@H]2CS(=O)(=O)C[C@@H]2S(=O)(=O)c2ccc(Cl)cc2)c1	0.0946%

Block 2 — observed: cell-free assay; technique: competition with immobilised ligand; tested at: 1 µM
SMILES: C[C@H](c1cccc(C#N)c1)n1cc(Cl)cc(C(N)=O)c1=N
target	remaining binding [%]
Ephrin type-A receptor 4 (EPHA4, Homo sapiens, UniProt P54764)	65
Fibroblast growth factor receptor 4 (FGFR4, Homo sapiens, UniProt P22455)	87
eIF-2-alpha kinase GCN2, C-terminal kinase domain (EIF2AK4, Homo sapiens, UniProt Q9P2K8, S808G)	45
Macrophage-stimulating protein receptor (MST1R, Homo sapiens, UniProt Q04912)	100
Cyclin-dependent kinase 11B (CDK11B, Homo sapiens, UniProt P21127)	86
Dual specificity protein kinase TTK (TTK, Homo sapiens, UniProt P33981)	66
Serine/threonine-protein kinase PAK 6 (PAK6, Homo sapiens, UniProt Q9NQU5)	100
Casein kinase I isoform gamma-2 (CSNK1G2, Homo sapiens, UniProt P78368)	99
SRSF protein kinase 3 (SRPK3, Homo sapiens, UniProt Q9UPE1)	100
Ephrin type-A receptor 7 (EPHA7, Homo sapiens, UniProt Q15375)	98
Mast/stem cell growth factor receptor Kit (KIT, Homo sapiens, UniProt P10721, D816H)	79
Calcium/calmodulin-dependent protein kinase type 1G (CAMK1G, Homo sapiens, UniProt Q96NX5)	100
Serine/threonine-protein kinase D2 (PRKD2, Homo sapiens, UniProt Q9BZL6)	58
Serine/threonine-protein kinase PLK2 (PLK2, Homo sapiens, UniProt Q9NYY3)	92
Dual specificity mitogen-activated protein kinase kinase 6 (MAP2K6, Homo sapiens, UniProt P52564)	100
Receptor tyrosine-protein kinase erbB-3 (ERBB3, Homo sapiens, UniProt P21860)	92
Dual specificity testis-specific protein kinase 1 (TESK1, Homo sapiens, UniProt Q15569)	86
Myosin light chain kinase, smooth muscle (MYLK, Homo sapiens, UniProt Q15746)	100
Phosphatidylinositol 4,5-bisphosphate 3-kinase catalytic subunit beta isoform (PIK3CB, Homo sapiens, UniProt P42338)	94
NT-3 growth factor receptor (NTRK3, Homo sapiens, UniProt Q16288)	96
5'-AMP-activated protein kinase catalytic subunit alpha-2 (PRKAA2, Homo sapiens, UniProt P54646)	94
cGMP-dependent protein kinase 1 (PRKG1, Homo sapiens, UniProt Q13976)	100

Block 3 — technique: logD(dd/w) and ALogP; setting: JT method
Structure (SMILES)	lipophilic permeability efficiency
CC(C)C[C@@H]1NC(=O)[C@H](CC(C)C)NC(=O)[C@@H](CC(C)C)NC(=O)[C@@H](C(C)C)NC(=O)[C@H](C)NC(=O)[C@H](CC(C)C)NC(=O)[C@@H](CC(C)C)NC1=O	3.1
CC(C)C[C@@H]1NC(=O)[C@H](Cc2cscn2)NC(=O)[C@H](Cc2cscn2)NC(=O)[C@H](CC(C)C)NC(=O)[C@@H](CCC(=O)N2CCCC2)NC(=O)[C@H](CC(C)C)NC(=O)[C@@H](CC(C)C)NC1=O	2.56
CC(C)C[C@@H]1NC(=O)[C@H](CC(C)C)NC(=O)[C@@H](CC(C)C)NC(=O)[C@H](Cc2cscn2)NC(=O)[C@@H](Cc2cscn2)NC(=O)[C@H](Cc2cscn2)NC(=O)[C@H](CCC(=O)N2CCCC2)NC1=O	1.94
CC(C)C[C@@H]1NC(=O)[C@H](CC(C)C)NC(=O)[C@H](CC(C)C)NC(=O)[C@H](C(C)C)NC(=O)[C@@H](CCC(=O)N2CCCC2)NC(=O)[C@H](C)NC(=O)[C@H](C)NC1=O	2.07
CC(C)C[C@@H]1NC(=O)[C@H](CC(C)C)NC(=O)[C@@H](C(C)C)NC(=O)[C@H](C(C)C)NC(=O)[C@H](C)NC(=O)[C@H](Cc2cscn2)NC(=O)[C@H](CCC(=O)N2CCCC2)NC1=O	1.23
CC(C)C[C@@H]1NC(=O)[C@H](C)NC(=O)[C@@H](CC(C)C)NC(=O)[C@@H](CC(C)C)NC(=O)[C@H](C)NC(=O)[C@H](CC(C)C)NC(=O)[C@@H](CC(C)C)NC1=O	2.87
CC(C)C[C@@H]1NC(=O)[C@H](C(C)C)NC(=O)[C@H](CCC(=O)N2CCCC2)NC(=O)[C@H](CCC(=O)N2CCCC2)NC(=O)[C@@H](Cc2cscn2)NC(=O)[C@H](CC(C)C)NC(=O)[C@@H](CC(C)C)NC1=O	1.41
CC(C)C[C@@H]1NC(=O)[C@H](CC(C)C)NC(=O)[C@H](CC(C)C)NC(=O)[C@H](C(C)C)NC(=O)[C@H](C)NC(=O)[C@H](C)NC(=O)[C@H](CCC(=O)N2CCCC2)NC1=O	1.74
CC(C)C[C@@H]1NC(=O)[C@H](CC(C)C)NC(=O)[C@H](CC(C)C)NC(=O)[C@H](CC(C)C)NC(=O)[C@@H](Cc2cscn2)NC(=O)[C@@H](CC(C)C)NC(=O)[C@H](C)NC1=O	2.55

Block 4 — observed: enzyme activity; action: inhibitor; tested at: 0.5 µM; reference: control
Target: Serine/threonine-protein kinase PAK 5 (PAK5, Homo sapiens, UniProt Q9P286)
Chain of UniProt Q9P286 (whole entry, looked up): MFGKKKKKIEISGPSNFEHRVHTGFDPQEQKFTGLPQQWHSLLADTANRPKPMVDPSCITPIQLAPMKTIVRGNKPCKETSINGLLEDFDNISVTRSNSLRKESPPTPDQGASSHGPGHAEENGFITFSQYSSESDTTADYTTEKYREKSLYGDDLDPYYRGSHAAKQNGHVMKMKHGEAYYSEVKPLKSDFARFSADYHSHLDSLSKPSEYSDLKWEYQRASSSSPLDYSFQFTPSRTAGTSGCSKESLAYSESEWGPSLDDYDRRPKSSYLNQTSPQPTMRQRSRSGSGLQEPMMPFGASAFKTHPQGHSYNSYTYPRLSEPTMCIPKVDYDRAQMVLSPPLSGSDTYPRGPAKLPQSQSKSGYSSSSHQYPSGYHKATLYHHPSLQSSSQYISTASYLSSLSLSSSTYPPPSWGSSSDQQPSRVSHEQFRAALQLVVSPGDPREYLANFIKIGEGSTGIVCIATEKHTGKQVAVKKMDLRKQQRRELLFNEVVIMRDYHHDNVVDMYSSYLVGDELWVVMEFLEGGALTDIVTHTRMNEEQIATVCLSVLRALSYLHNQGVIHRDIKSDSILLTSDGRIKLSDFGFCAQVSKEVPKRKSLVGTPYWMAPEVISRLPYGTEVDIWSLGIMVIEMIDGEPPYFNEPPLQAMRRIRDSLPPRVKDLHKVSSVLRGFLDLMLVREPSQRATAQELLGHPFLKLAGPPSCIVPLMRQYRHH
Compound	remaining activity [%]
N#CC(=C(N)Sc1ccc(N)cc1)c1ccccc1C(F)(F)F	104
Oc1ccc(Nc2nc(-c3ccc(Cl)cc3)cs2)cc1	105
O=S(=O)(NCCNC/C=C/c1ccc(Br)cc1)c1cccc2cnccc12	91.4
CCc1[nH]c(-c2ccc(OC)cc2)nc1-c1ccncc1	101
Cc1cc(Nc2nc(-c3ccccc3)nc3ccccc23)n[nH]1	53.1
CC[n+]1c(/C=C/N(C)c2ccccc2)n(-c2ccccc2)c2ccc(-c3nc4ccccc4s3)cc21	98.6
Nc1ncnc2c1cnn2-c1ccccc1	97
COc1cc(Nc2c(C#N)cnc3cc(OCCCN4CCN(C)CC4)c(OC)cc23)c(Cl)cc1Cl	83.6
Nc1nccc(-c2c(-c3ccc(F)cc3)ncn2C2CCNCC2)n1	101

For quick reference, copied from above (block 4):
Compound	remaining activity [%]
Oc1ccc(Nc2nc(-c3ccc(Cl)cc3)cs2)cc1	105
O=S(=O)(NCCNC/C=C/c1ccc(Br)cc1)c1cccc2cnccc12	91.4
CCc1[nH]c(-c2ccc(OC)cc2)nc1-c1ccncc1	101
Cc1cc(Nc2nc(-c3ccccc3)nc3ccccc23)n[nH]1	53.1
CC[n+]1c(/C=C/N(C)c2ccccc2)n(-c2ccccc2)c2ccc(-c3nc4ccccc4s3)cc21	98.6
